Results from different studies.
Every numbered part comes from another study and shows a few of its results, in no order. Substitutions count along the parent as printed.

Set 1 — target: CCNB3, cyclin fold, Cln2 fusion (human); method: yeast growth competition, sequencing; matrix: yeast; setting: strong parent motif; reference: not given; direction: higher = stronger binding; endpoint: normalised enrichment score
Parent: viral docking peptide; KGVKRKLFAEDSS; partner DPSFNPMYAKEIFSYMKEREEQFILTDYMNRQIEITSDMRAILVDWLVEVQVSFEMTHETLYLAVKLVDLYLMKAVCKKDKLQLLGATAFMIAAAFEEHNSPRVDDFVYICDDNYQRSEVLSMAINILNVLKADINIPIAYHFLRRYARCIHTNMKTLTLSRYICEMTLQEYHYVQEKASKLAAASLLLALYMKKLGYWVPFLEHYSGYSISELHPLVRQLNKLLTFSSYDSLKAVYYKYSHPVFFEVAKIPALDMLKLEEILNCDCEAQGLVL
KHVKRKLFAEDSS [G2H]: 2.71
KGVKRKLFAMDSS [E10M]: 1.71
KGVKRKLGAEDSS [F8G]: -0.00601
KGVKRKLFAEDGS [S12G]: 2.66
KGVKRFLFAEDSS [K6F]: 0.269
KGVKRKLFACDSS [E10C]: 1.9
KSVKRKLFAEDSS [G2S]: 3.47
KGVSRKLFAEDSS [K4S]: 1.52
KGVWRKLFAEDSS [K4W]: 1.1

Set 2 — target: inorganic phosphate, free oxyanion; method: microfluidic competitive inhibition; matrix: in vitro, cell-free expressed; tested at: not given; direction: lower = stronger binding; endpoint: phosphate dissociation constant
Setting: derived from inhibition constants, unchanged parent 615000 nM
Parent: PafA, mature enzyme, eGFP fusion (Elizabethkingia meningoseptica, UniProt Q9KJX5); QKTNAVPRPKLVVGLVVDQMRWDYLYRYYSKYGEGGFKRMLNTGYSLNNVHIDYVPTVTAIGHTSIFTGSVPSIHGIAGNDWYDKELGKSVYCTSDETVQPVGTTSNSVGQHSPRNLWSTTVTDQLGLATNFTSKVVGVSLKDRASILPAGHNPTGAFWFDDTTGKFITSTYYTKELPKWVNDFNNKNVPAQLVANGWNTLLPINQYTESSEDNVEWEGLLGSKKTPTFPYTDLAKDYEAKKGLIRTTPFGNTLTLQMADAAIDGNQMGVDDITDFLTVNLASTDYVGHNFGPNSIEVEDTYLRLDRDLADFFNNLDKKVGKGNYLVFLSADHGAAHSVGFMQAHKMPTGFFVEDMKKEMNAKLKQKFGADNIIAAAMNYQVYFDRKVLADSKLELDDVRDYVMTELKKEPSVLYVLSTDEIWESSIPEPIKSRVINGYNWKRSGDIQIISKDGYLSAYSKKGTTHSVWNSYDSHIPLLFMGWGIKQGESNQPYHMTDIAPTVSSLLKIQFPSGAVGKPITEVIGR
E395G: 588 µM
E176V: 663 µM
T43V: 650 µM
L303G: 518 µM
K367V: 707 µM
D84G: 491 µM
K409G: 566 µM
K462V: 634 µM
L456G: 323 µM
V298A: 714 µM
G35A: 641 µM
E429G: 387 µM
I74G: 160 µM
T208G: 639 µM

Set 3 — effect on: binding; method: phage display NGS; molecule type: peptide; reference: input library; endpoint: minimum log2 enrichment ratio
Target: UDP-N-acetylglucosamine--peptide N-acetylglucosaminyltransferase 110 kDa subunit (OGT, Homo sapiens, UniProt O15294)
UniProt O15294, sequence (whole entry, looked up): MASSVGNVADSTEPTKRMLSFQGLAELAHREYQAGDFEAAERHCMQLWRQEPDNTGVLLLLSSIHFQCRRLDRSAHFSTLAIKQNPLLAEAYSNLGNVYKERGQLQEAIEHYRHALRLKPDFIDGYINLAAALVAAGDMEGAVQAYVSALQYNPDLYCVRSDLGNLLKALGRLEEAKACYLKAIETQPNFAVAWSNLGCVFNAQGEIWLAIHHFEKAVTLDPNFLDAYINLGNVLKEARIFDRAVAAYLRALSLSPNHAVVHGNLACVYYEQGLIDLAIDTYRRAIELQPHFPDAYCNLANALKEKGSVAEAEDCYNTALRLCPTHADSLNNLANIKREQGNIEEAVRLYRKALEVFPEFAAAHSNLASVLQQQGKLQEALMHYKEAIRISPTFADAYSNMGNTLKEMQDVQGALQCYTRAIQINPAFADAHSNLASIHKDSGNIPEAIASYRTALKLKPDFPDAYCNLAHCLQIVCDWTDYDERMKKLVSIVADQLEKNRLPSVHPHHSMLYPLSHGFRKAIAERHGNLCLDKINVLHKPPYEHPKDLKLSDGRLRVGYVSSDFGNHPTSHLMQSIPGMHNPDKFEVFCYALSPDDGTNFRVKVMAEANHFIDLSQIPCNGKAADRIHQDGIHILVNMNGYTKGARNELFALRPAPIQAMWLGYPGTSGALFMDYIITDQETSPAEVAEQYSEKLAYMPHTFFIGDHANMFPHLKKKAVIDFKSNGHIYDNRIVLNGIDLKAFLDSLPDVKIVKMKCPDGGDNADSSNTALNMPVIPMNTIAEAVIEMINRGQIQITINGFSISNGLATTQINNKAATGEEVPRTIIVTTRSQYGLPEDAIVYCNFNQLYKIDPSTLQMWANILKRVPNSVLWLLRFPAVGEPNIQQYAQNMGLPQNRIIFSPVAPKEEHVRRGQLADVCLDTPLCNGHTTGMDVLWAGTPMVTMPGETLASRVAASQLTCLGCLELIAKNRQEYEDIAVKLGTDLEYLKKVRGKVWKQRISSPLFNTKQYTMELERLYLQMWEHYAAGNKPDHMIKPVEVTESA
HFVHRQDNGFMKHT: 2.31
YTTHKHHNTTNFVAV: 2.55
WAGWRGTDALHSHWD: 1.8
DEGLFLPFYDITPSF: 2.62
GAYSPIYQIFYSRIT: 5.87
VAYPNSYMPKYQIST: 4.17
FHSTMPVYQLKYVN: 1.63
HRVHTVETHYISHIV: 1.28
WTPHPAHDNKPHYR: 1.43
HQLDQRRGHVHGHME: 2.31
HIAHQYPHQAKPSGH: 2.09
QQYFLPMYQIQFRNM: 4.8
AGGQYPPKYQIIFPT: 5.83
YFTTPMYQIYYERA: 3.76
TNFMPLYQIPTTQYF: 4.21
SIVYEYKKGQIHNHR: 1.75
ASQYDFMPAYRIDVG: 3.22
VTSLGNSPFMPFYQI: 3.26
TLHQQFYPPMYFIKV: 3.28
DFVMPEYIIEYQIRS: 2.38
QQPRYYPQYQMRYKV: 3.22
KFTELPMYHDARHHQ: 1.86

Set 4 — target: CREBRF, bZIP domain (human); method: DHFR protein complementation; matrix: yeast; reference: wild-type JUN-FOS pair; direction: higher = stronger binding; endpoint: binding fitness
Setting: single substitutions, most at no-binding floor
Parent: JUN, bZIP domain (human); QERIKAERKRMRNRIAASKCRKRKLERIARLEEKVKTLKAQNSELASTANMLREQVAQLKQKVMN; partner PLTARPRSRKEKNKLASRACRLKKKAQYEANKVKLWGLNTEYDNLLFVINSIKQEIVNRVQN
K39Y: -1.58 natural log
T37H: -1.28 natural log
L31Q: -1.54 natural log
K36P: -1.55 natural log
A29M: -1.25 natural log
E44N: -1.47 natural log
T48L: -1.38 natural log
N42G: -1.48 natural log

A few entries again (set 1):
KHVKRKLFAEDSS [G2H]: 2.71
KGVKRKLFAMDSS [E10M]: 1.71
KGVKRKLGAEDSS [F8G]: -0.00601
KGVKRKLFAEDGS [S12G]: 2.66
KGVKRFLFAEDSS [K6F]: 0.269
KGVKRKLFACDSS [E10C]: 1.9
